# Assay results of several laboratories.
# Parts stem from different laboratories: compare values within a part only. ± gives the spread as reported.
# Chain of UniProt Q9ULD4 (whole entry, looked up): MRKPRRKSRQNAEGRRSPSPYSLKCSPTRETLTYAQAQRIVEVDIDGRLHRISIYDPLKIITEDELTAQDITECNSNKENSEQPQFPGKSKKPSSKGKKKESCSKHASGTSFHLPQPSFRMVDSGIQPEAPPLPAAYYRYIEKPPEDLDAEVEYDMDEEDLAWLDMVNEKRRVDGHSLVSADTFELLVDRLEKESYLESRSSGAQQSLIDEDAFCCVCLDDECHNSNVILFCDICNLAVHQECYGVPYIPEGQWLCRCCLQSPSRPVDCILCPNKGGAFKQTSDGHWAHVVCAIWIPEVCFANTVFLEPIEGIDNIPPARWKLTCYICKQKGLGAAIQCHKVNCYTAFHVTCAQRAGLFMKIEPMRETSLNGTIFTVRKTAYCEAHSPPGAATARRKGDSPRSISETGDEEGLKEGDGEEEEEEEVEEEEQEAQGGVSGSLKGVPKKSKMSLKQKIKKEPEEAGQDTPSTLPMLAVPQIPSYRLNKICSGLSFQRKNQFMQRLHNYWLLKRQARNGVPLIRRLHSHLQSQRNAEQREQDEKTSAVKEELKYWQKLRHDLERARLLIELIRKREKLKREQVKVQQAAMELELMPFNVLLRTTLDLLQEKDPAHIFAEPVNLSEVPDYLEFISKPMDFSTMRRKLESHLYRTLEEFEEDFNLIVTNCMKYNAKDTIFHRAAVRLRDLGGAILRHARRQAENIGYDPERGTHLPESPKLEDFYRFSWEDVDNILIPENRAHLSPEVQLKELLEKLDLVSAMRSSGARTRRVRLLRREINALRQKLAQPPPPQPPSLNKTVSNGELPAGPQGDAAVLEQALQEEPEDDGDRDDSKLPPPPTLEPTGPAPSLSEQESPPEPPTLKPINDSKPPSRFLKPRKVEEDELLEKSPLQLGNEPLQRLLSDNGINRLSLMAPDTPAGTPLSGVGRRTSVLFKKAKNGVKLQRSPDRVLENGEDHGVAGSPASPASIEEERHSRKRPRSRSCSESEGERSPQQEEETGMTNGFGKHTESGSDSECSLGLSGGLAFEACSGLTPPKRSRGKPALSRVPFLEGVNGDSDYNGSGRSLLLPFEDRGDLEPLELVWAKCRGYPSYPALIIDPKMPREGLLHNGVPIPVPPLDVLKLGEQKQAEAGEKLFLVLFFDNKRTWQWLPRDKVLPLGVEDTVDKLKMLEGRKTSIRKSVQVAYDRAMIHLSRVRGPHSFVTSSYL
# Chain of UniProt P07947 (whole entry, looked up): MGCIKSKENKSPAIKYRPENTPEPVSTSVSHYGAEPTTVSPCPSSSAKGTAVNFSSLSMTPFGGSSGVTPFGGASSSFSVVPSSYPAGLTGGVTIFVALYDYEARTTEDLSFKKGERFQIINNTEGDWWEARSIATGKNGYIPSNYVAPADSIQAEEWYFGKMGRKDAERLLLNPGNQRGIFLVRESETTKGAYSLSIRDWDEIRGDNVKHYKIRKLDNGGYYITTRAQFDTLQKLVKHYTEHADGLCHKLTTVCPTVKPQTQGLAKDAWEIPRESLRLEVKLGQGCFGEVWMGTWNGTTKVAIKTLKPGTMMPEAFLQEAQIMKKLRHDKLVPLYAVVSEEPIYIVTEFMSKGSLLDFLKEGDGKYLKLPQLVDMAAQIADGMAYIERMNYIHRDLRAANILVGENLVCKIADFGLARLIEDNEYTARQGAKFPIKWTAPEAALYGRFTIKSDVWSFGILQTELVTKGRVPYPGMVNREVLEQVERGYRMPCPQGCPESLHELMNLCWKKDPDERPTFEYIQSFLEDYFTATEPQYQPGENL
# Chain of UniProt P46734 (whole entry, looked up): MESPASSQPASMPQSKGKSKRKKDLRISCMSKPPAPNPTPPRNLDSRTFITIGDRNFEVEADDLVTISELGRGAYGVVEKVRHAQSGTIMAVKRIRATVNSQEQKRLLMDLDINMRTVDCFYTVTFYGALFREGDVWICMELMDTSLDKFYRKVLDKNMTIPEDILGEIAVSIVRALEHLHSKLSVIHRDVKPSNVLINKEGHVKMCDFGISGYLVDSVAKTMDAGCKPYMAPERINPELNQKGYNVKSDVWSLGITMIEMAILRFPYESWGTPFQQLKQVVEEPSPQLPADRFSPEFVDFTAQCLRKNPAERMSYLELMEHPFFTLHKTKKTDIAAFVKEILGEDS

# Study 1 — observed: cell-free assay; technique: competition with immobilised ligand; concentration: 1 µM
# SMILES: COc1ccc2c(c1)O[C@H](c1ccc(OC)c(OC)c1)C[C@@H]2NC(=O)C1(c2ccc3c(c2)OC(F)(F)O3)CC1
target,remaining binding [%]
"Mitogen-activated protein kinase kinase kinase 7 (MAP3K7, Homo sapiens, UniProt O43318)",100
"5'-AMP-activated protein kinase catalytic subunit alpha-1 (PRKAA1, Homo sapiens, UniProt Q13131)",100
"Serine/threonine-protein kinase MARK1 (MARK1, Homo sapiens, UniProt Q9P0L2)",79
"Ribosomal protein S6 kinase alpha-4, C-terminal kinase domain (RPS6KA4, Homo sapiens, UniProt O75676)",100
"Dual specificity mitogen-activated protein kinase kinase 3 (MAP2K3, Homo sapiens, UniProt P46734)",100
"Tyrosine-protein kinase Yes (YES1, Homo sapiens, UniProt P07947)",97
"Tyrosine-protein kinase ABL1, phosphorylated (ABL1, Homo sapiens, UniProt P00519, T315I)",100
"Fibroblast growth factor receptor 2 (FGFR2, Homo sapiens, UniProt P21802)",92
"Serine/threonine-protein kinase SIK3 (SIK3, Homo sapiens, UniProt Q9Y2K2)",95

# Study 2 — observed: enzyme activity; action: inhibitor; concentration: 0.5 µM; relative to: control
# Target: Calcium/calmodulin-dependent protein kinase type 1 (CAMK1, Homo sapiens, UniProt Q14012)
# Chain of UniProt Q14012 (whole entry, looked up): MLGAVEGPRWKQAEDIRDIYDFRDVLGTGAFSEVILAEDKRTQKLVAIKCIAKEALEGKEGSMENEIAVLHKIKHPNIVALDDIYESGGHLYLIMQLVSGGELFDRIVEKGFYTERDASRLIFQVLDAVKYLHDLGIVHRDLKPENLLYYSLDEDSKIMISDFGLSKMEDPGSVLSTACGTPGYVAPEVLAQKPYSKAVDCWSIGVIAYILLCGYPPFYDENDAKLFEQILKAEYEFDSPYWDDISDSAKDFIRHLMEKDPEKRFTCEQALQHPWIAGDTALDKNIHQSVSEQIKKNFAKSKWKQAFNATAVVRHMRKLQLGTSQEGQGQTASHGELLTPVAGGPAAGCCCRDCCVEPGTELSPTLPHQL
Structure (SMILES),remaining activity [%]
COc1cc2ncnc(Nc3ccc(Oc4ccccc4)cc3)c2cc1OC,105
CN(C)c1ccc(C=C2C(=O)Nc3ccccc32)cc1,104
O=C1NC(=O)C(c2cn(CCCn3ccnc3)c3ccccc23)=C1Nc1ccccc1,106
CC(C)[C@H](CO)Nc1nc(Nc2cc(N)cc(Cl)c2)c2ncn(C(C)C)c2n1,95.3
O=C(O)c1ccc2c3c1cccc3c(=O)n1c3ccccc3nc21,101
OCC(O)CCON=C1C(c2c(O)[nH]c3ccccc23)=Nc2ccccc21 (stereo not drawn),76
O=C(Nc1cccc(Nc2cc(Nc3cccc(C(F)(F)F)c3)ncn2)c1)C1CC1,108
Cc1nc(-c2ccccc2)c(-c2ccncc2)o1,105
Cn1c2ccccc2c2c3c(c4c5ccccc5n(CCC#N)c4c21)CNC3=O,94.2
N#CC(C#N)=C(N)/C(C#N)=C/c1ccc(O)cc1,97.2
O=S(=O)(c1cccc2cnccc12)N1CCCNCC1,99.4
Oc1ccc(-c2nc(-c3ccncc3)c(-c3ccc(F)cc3)[nH]2)cc1,108
CCOC(=O)c1c(C)[nH]c(/C=C2\C(=O)Nc3ccccc32)c1C,98.1
CNC(=O)c1cc(Oc2ccc(NC(=O)Nc3ccc(Cl)c(C(F)(F)F)c3)cc2)ccn1,106
COc1ccc(C(=O)Nc2sc3c(c2C(N)=O)CCCC3)cc1OC,90.9
C#Cc1cccc(Nc2ncnc3cc(OCCOC)c(OCCOC)cc23)c1,98.9

# Study 3 — observed: binding; technique: thermal shift; concentration: 10 µM; reading: higher = stronger binding
# Structure (SMILES): Cc1cnc(Nc2ccc(OCCN3CCCC3)cc2)nc1Nc1cccc(S(=O)(=O)NC(C)(C)C)c1
target,delta Tm [°C]
"Transcription intermediary factor 1-alpha, PHD-bromodomain (TRIM24, Homo sapiens, UniProt O15164)",0.01 ± 0.14
"SP140L, PHD-bromodomain (Homo sapiens, UniProt Q9H930)",0.03 ± 0.13
"Bromodomain and PHD finger-containing protein 3 (BRPF3, Homo sapiens, UniProt Q9ULD4)",-0.01 ± 0.07
"Protein polybromo-1, BD4 (PBRM1, Homo sapiens, UniProt Q86U86)",-0.06 ± 0.26
"Peregrin, isoform A (BRPF1, Homo sapiens, UniProt P55201)",0

# Study 4 — observed: enzyme activity; action: inhibitor; concentration: 77 µM; relative to: untreated
# Target: DNA polymerase theta, ATPase domain (POLQ, Homo sapiens, UniProt O75417)
# Chain of UniProt O75417 (whole entry, unmodified, looked up): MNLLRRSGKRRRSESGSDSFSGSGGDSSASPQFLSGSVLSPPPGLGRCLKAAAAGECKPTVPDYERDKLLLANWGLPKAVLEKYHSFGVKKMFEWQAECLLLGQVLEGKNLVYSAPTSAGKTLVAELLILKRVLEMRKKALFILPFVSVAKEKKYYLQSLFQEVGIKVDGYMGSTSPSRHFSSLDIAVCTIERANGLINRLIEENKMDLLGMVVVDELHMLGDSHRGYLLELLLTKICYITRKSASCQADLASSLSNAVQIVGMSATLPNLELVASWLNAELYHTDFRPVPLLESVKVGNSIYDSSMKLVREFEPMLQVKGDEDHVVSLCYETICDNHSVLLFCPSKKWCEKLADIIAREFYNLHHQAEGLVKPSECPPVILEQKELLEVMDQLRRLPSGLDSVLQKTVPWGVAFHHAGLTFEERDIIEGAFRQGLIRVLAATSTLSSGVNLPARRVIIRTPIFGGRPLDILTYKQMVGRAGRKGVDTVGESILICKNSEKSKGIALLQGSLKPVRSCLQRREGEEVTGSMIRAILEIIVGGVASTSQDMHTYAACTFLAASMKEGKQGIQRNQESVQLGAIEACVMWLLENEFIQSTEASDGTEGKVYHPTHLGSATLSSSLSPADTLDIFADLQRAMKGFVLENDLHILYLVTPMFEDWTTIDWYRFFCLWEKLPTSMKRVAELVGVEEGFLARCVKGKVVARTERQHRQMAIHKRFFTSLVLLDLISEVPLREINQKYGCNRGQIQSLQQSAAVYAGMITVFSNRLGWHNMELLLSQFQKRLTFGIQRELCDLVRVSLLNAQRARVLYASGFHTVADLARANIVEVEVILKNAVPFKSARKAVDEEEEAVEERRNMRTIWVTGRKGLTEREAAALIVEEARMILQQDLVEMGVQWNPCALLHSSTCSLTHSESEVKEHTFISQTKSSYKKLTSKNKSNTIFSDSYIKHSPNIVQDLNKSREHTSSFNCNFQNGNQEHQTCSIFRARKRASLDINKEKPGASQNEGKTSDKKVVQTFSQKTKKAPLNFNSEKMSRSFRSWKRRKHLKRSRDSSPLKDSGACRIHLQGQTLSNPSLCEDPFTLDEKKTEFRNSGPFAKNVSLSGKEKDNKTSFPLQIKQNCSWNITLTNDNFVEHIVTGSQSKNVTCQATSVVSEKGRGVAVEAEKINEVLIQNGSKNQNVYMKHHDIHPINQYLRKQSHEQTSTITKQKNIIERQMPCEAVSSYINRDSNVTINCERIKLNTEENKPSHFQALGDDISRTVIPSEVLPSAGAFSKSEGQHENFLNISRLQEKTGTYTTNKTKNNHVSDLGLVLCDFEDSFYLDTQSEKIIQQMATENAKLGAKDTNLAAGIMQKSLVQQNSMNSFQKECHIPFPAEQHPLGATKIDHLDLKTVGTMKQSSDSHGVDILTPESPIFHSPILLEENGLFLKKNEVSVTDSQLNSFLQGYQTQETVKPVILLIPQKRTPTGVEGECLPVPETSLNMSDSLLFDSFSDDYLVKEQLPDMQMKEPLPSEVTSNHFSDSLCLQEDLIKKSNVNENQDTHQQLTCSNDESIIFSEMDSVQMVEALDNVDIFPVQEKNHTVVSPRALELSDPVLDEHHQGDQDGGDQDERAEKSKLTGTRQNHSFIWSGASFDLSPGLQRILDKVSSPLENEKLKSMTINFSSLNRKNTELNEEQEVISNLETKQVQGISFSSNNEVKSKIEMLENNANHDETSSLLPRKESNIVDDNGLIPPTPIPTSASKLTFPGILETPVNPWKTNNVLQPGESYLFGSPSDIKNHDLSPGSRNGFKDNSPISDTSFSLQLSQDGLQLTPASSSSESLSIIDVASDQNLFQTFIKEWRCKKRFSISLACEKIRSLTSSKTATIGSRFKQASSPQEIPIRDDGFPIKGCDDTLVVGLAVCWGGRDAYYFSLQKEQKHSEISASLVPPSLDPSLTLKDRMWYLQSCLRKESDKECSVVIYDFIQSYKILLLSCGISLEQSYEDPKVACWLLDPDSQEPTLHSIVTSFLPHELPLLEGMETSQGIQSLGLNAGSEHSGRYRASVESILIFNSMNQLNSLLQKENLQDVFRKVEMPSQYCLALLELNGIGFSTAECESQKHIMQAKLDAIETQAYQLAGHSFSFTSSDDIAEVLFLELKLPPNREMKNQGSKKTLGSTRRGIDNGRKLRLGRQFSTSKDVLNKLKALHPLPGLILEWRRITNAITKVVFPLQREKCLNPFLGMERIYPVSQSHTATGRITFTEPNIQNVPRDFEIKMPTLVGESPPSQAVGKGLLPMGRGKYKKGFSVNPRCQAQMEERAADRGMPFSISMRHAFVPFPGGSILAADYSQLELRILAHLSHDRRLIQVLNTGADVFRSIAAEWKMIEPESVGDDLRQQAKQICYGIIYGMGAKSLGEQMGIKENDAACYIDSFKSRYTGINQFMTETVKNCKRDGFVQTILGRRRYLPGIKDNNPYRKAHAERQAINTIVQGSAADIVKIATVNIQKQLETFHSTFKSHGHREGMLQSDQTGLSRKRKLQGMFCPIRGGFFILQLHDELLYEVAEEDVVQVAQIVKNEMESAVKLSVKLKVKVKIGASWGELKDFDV
Compound,remaining activity [%]
NC(CO)C(=O)NNCc1ccc(O)c(O)c1O (stereo not drawn),104
COc1cc2nccc(Oc3ccc(NC(=O)NC4CC4)c(Cl)c3)c2cc1C(N)=O,76.6
CCCCOC(=O)c1ccc(N)cc1,99.8
CCOC(=O)c1ccc(OC(=O)CCCCCN=C(N)N)cc1,103
N[C@H](C(=O)O)[C@H]1C[C@@H]1C(=O)O,100
COC(=O)[C@H]1[C@H]2C[C@H]3c4[nH]c5ccccc5c4CCN3C[C@H]2CC[C@@H]1O,110
CN(CCCCCCCCCCN(C)C(=O)Oc1cccc([N+](C)(C)C)c1)C(=O)Oc1cccc([N+](C)(C)C)c1,103
Cc1c(OCC(F)(F)F)ccnc1C[S@@+]([O-])c1nc2ccccc2[nH]1,103
NCCCNCCCCNCCCN,101

# Some of these lines once more (study 2):
Structure (SMILES),remaining activity [%]
O=C(O)c1ccc2c3c1cccc3c(=O)n1c3ccccc3nc21,101
COc1ccc(C(=O)Nc2sc3c(c2C(N)=O)CCCC3)cc1OC,90.9
Cc1nc(-c2ccccc2)c(-c2ccncc2)o1,105
O=S(=O)(c1cccc2cnccc12)N1CCCNCC1,99.4
CNC(=O)c1cc(Oc2ccc(NC(=O)Nc3ccc(Cl)c(C(F)(F)F)c3)cc2)ccn1,106
CC(C)[C@H](CO)Nc1nc(Nc2cc(N)cc(Cl)c2)c2ncn(C(C)C)c2n1,95.3
